Assay results from different studies.
Each numbered part is a random draw from the data of one study; scales do not carry over between parts. Changes are numbered by the printed parent chain.

Block 1
Target: RNA binding protein fox-1 homolog 2, RRM domain, GST-SBP tag (RBFOX2, Homo sapiens, UniProt O43251-10, residues 100-194)
Technique: RNA Bind-n-Seq
Molecule type: RNA
Matrix: in vitro
Concentration: 365 nM
Setting: natural RNA segment, single round, ends assumed
Reference: no-protein control
Direction: higher = stronger binding
Shared flanks, not repeated: GGGAGUUCUACAGUCCGACGAUC … UGGAAUUCUCGGGUGCCAA
Oligonucleotide	RBNS enrichment (R)
UCUUUCUACAACUGUGUUCUGUGACUCAAUUGUAUCGUGUUAAUAUCAGUGCAGACUGUCUCCUCUACGUGACCGUAUAAUGUUUUUCUCUUCUUGUAGUCUCUAUGGCG	0.886
GGGACAGGCCUCAGUCCCUAGAGGUGUGUUUAAGCUUGUUGGGCAAGAGCUGGAUGCGGAUCUUCGGAAGGGCGGUGGGUAUCCCGAGUUCUCAGGAAUCCGACUGUAGA	0.825
GUUUAUUUUGUUUGGGUAAUUUGGUUCAUUAAGUACAUAGCUAAGGUAAUGAACAUCUUUUUCAGUAAUUGUAAAGUGAUUUAUUCAGAAUAAAUUUUUUGUGCUUAUGA	0.621
AAAUAUUCAGAUACAAGUUUUAUCUCAGGUGAAUACUCUUGUAUUGUUUUUGCUUUGGUGACAUGCUUAUAAAGGGUCAUCCUAGUUACAUUCUUUGUUUUUUAAGUGUA	0.489
AUGCUUAAAUUCUUUUCAGUUUUCACAGUGGCACAUUUAGGCAUGGGGAUAGUACUAAUUAUGAAAUUUCCUGCAGGAUCUGUUCUAAGGUUGAAAUUUAGCCCAGCUCU	0.519
GCACAACAGUUGGCACUUCUGUCUAGAAAAUAAUAAUUGCAAGUUGUAUAACUCAGGCGUCUUUGCAUUUCUGCGAAAGAUCAAGGUCUGCAAGGGAAUUCUUGUGUGCU	0.768
UUAACAUCAUAUGGUCUGAAAAUGUGGGUUUUUAUUUGGCACAUUUAAAUAAAAUGUUUCUAACUAGUUUUUGAUUUGUGUUCAAUAUUAACACUUCUUAAUUUGAUAUA	0.559
GGGCUGUUUUAUCUUCCCUGAGUGCCUGGGUCUCCCUCCCUCACUUCUGCCCUUUCCCUUCCUCCUCCUCUUCUCCUCCCUCUUCCCUCAUCUCCCCCCUCCUUCCUCUG	1.39
GGCUGCUUGGAAGGAGCCAUGGCCUAGGGUUCAGGGAACUAGACUCUAUCCCAGUUGGGUUCAGACUGCUGUGACUGUGGACACGAUGCUCCUUGUUCUGGGCUCCAGUU	0.419
UCUGGCUAUGUGCUGAAGCCAGAAUUCCUGAGAGAUACCCAGAGUUCAUUCAAUCCUGAGAGGCCAAUUAGUCUUUAUAAGGCCCAGAUCCUUGUAGUCCAGGUGAUCAG	0.497
CUCUGCUCCACUGUCUGCAGCCCAGAUCCUGUUGGGCCUGGCUGGUGUCUGGUAACCAUGGGCCUCCACUGACCCAUCCCUCUCUUUUAAACUGUCAGGUCAUUAUCAGG	0.444
UUUAAGAAGAGCUAUUCAUCACUGUAAUUAUUAUUAUUUUCUACAAUAAAUGGGACCUGUGCACAGGAGGAAAUUUUAUUGUCUCUGAUUUCAACUGUGGAGGUGGGUGG	0.531

Block 2
Target: CCNE1, cyclin fold, Cln2 fusion (human)
Technique: yeast growth competition, sequencing
Matrix: yeast
Setting: strong parent motif
Reference: not given
Direction: higher = stronger binding
Parent: E2F1 docking peptide (human); PPVKRRLDLETDH; partner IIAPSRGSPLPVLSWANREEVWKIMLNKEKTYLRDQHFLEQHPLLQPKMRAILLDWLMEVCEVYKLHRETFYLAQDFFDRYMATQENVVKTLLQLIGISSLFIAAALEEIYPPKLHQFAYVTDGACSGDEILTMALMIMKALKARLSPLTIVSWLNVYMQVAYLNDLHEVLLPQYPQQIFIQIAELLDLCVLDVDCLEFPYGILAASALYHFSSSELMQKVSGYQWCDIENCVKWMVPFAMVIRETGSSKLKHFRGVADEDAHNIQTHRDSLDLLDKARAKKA
Variant	normalised enrichment score
R5P	-0.325
P1H	1.68
R6V	1.76
L7N	0.254
L7V	-0.6
D12C	1.92
R6C	0.558
H13M	2.24
D12E	1.91
P2A	0.994
L7T	0.463
H13G	2.17
P1M	1.96
T11K	0.508
P2G	1.83
R5N	0.491

Block 3
Target: Histone acetyltransferase KAT6A, both winged helices, GST fusion (KAT6A, Homo sapiens, UniProt Q92794, residues 1-181)
Technique: protein binding microarray
Molecule type: double-stranded DNA, one strand shown
Matrix: in vitro
Concentration: not given
Setting: 8-mer, flanks averaged, mean of 2 arrays, mostly near background
Reference: not given
Direction: higher = stronger binding
Target sequence (chain): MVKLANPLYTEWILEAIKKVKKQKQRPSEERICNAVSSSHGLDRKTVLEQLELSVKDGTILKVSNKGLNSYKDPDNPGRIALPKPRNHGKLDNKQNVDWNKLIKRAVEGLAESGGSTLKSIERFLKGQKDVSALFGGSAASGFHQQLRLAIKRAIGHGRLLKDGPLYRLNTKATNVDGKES
Oligonucleotide	E-score
CTCGAGAA	-0.0619
GGCTAAAA	0.0973
AGACGACA	-0.0131
CAGGGTCA	-0.097
AAGGCTGG	-0.267
CTTTACAC	0.0296
AGTTGAGA	-0.286
CTATCCAA	-0.0373
CGTGTCCA	0.00393
AAGTCTTG	0.0348
GTGATCAA	0.0512
ATTTAGAG	-0.131

Block 4
Target: Phosphate system positive regulatory protein PHO4, full length, GST-tagged (PHO4, Saccharomyces cerevisiae, UniProt P07270, residues 1-312)
Technique: competition protein-binding microarray
Molecule type: double-stranded DNA, one strand shown
Matrix: in vitro
Concentration: 2 µM
Setting: whole 60-bp probe, lowest competitor level
Together with: Cbf1 competitor, 0.05 µM
Direction: higher = stronger binding
Shared flanks, not repeated: … GTCTTGATTCGCTTGACGCTGCTG
Residues (chain): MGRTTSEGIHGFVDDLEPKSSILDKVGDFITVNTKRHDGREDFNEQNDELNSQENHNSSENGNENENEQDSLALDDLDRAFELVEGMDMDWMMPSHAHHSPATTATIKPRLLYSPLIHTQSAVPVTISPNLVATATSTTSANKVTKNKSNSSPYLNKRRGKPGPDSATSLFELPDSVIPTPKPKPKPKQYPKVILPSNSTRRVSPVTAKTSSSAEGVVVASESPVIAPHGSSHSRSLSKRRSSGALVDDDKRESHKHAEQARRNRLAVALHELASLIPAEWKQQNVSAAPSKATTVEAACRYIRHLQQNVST
Oligonucleotide	fluorescence intensity
AATTTGGCGCCGAGTCACGATATACTTGTACAGTGA	4290 a.u.
CTAACGAAGGTTTTTCACGTGTTGTACAAGCCAAGT	14000 a.u.
TACATCCCTTTTACACCCGTGCAAAAAAGGTGTTTG	7270 a.u.
CAGAGTAATGACTGTCATGATGAAGGCAAAAGGAGA	3600 a.u.
CTTGAATAGTCATCGCACGATTCTGGAGTGTAAGCA	7880 a.u.
TGGACCATCCAAGTACTCGTGAAGATCCGAGCCACA	3740 a.u.
AAATTAATTATTCAACACGTGATGGAGTTACTCTAA	17500 a.u.
TTCTTTAGAGGTTCACACGTAGTAAAAGAAAAAAAA	6110 a.u.
CTTGGTTATCTTTGACATGTGTTTCGTTCAGGCGAG	10500 a.u.
CTTTGTGATAGGCTTCACGTGTGAAATTGACACAGA	11400 a.u.
GCCTTTTCCATCGACCACGTTGACAAATACGGCATC	12500 a.u.
GCCCGGACACAGGGAATCGTGCGGAGCCGGGGATAA	5550 a.u.
AGCCGCAATACGTATCACATGGCTCAACCAATCTCG	7700 a.u.
TGAAAAACTGCTTGATTCGTGCTTTTAACTCAGAGG	5840 a.u.
TGCGCAACAACTTGGTACGTGGGTGTATGTCTAGAA	9100 a.u.
TTCTTCTCCCAATCGCACGGCGAAGTCGCTCGACAA	4200 a.u.
AGGACCTGCGTCCTTCACGCTGAAGCGGCAGCAAGC	3220 a.u.

Some of these lines once more (block 4):
Oligonucleotide	fluorescence intensity
AATTTGGCGCCGAGTCACGATATACTTGTACAGTGA	4290 a.u.
CTAACGAAGGTTTTTCACGTGTTGTACAAGCCAAGT	14000 a.u.
TACATCCCTTTTACACCCGTGCAAAAAAGGTGTTTG	7270 a.u.
CAGAGTAATGACTGTCATGATGAAGGCAAAAGGAGA	3600 a.u.
CTTGAATAGTCATCGCACGATTCTGGAGTGTAAGCA	7880 a.u.
TGGACCATCCAAGTACTCGTGAAGATCCGAGCCACA	3740 a.u.
AAATTAATTATTCAACACGTGATGGAGTTACTCTAA	17500 a.u.
